Measured values of several laboratories.
Parts stem from different laboratories: compare values within a part only. “And” joins repeats or separate records; there may be more than shown. pIC50: −log10 of the molar value.
UniProt P07949, sequence (whole entry, unmodified, looked up): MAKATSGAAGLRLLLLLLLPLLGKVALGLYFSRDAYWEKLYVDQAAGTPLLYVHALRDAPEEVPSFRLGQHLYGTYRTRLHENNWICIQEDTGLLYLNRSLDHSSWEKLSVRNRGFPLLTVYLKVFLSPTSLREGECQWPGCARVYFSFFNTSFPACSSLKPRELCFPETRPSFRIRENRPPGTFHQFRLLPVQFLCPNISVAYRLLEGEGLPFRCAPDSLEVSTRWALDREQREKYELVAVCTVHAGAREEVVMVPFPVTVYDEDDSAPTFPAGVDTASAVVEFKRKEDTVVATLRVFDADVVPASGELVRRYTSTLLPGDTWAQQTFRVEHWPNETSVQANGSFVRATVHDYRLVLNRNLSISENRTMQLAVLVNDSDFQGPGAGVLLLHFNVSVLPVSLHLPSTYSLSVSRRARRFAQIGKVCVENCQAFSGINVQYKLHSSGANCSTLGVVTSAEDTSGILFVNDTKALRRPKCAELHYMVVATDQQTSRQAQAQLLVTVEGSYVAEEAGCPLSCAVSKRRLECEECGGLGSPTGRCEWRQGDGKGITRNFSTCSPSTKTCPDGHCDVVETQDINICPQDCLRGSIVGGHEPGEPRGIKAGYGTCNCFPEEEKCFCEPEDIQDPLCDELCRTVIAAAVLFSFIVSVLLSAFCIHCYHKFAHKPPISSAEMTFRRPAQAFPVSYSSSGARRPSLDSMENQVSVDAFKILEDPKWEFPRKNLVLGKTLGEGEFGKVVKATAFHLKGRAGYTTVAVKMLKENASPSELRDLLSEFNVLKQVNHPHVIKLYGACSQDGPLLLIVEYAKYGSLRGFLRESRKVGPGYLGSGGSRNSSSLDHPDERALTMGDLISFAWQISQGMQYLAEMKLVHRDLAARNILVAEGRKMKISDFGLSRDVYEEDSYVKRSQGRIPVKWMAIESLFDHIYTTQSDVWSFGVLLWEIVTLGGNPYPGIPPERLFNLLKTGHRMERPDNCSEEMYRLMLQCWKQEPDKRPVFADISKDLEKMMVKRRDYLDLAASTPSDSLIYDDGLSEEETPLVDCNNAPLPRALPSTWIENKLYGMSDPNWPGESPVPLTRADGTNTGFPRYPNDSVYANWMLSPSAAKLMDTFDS
UniProt Q8IY84, sequence (whole entry, looked up): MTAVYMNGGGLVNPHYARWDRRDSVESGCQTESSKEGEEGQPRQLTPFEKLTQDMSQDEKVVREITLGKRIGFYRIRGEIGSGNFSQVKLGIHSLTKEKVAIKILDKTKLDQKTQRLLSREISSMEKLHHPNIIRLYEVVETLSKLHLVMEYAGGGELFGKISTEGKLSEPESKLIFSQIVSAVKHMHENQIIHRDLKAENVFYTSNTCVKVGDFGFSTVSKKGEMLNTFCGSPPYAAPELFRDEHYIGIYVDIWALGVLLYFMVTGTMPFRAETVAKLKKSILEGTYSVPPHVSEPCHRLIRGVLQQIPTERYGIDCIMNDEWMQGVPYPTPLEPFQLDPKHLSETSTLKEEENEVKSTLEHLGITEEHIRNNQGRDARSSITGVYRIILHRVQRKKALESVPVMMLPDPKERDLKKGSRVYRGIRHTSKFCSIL

Sample 1
SMILES: Cc1cc(NC(=O)c2cccc(S(F)(F)(F)(F)F)c2)cc(-n2ccn3nc(-c4cccnc4)cc23)c1
Read-out: cell-free assay
Method: competition with immobilised ligand
Concentration: 1 µM
| target | remaining binding |
| --- | --- |
| PRKD2 (Homo sapiens, UniProt Q9BZL6) | 100% |
| MTOR (Homo sapiens, UniProt P42345) | 99.2% |
| Ribosomal protein S6 kinase alpha-1, N-terminal kinase domain (RPS6KA1, Homo sapiens, UniProt Q15418) | 91.7% |
| CDK16 (Homo sapiens, UniProt Q00536) | 100% |
| NEK1 (Homo sapiens, UniProt Q96PY6) | 100% |
| PRKCH (Homo sapiens, UniProt P24723) | 100% |
| Non-receptor tyrosine-protein kinase TYK2, JH2 (TYK2, Homo sapiens, UniProt P29597) | 100% |
| Tyrosine-protein kinase ABL1, phosphorylated (ABL1, Homo sapiens, UniProt P00519, F317L) | 72.9% |
| GRK3 (Homo sapiens, UniProt P35626) | 74.8% |
| MAPK15 (Homo sapiens, UniProt Q8TD08) | 100% |
| NIM1K (Homo sapiens, UniProt Q8IY84) | 100% |
| RIOK2 (Homo sapiens, UniProt Q9BVS4) | 49.7% |
| TSSK1B (Homo sapiens, UniProt Q9BXA7) | 100% |
| RET (Homo sapiens, UniProt P07949) | 100% |
| GRK7 (Homo sapiens, UniProt Q8WTQ7) | 100% |
| RET (Homo sapiens, UniProt P07949, V804L) | 100% |
| IRAK4 (Homo sapiens, UniProt Q9NWZ3) | 98.4% |
| MAP2K5 (Homo sapiens, UniProt Q13163) | 35.9% |

Sample 2
Target: Beta-1 adrenergic receptor (ADRB1, Homo sapiens, UniProt P08588)
UniProt P08588, sequence (whole entry, looked up): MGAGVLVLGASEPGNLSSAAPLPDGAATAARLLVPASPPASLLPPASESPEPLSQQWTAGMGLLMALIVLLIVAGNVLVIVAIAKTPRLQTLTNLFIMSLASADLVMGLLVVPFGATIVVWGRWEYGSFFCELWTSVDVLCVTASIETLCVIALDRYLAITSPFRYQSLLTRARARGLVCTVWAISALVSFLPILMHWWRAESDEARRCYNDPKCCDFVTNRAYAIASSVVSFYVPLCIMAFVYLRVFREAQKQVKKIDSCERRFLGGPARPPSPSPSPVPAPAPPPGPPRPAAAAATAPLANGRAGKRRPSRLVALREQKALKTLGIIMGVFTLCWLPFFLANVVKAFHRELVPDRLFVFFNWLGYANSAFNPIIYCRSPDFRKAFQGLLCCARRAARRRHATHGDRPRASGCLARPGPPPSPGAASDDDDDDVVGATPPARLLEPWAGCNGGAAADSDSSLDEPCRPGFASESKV
Mode: antagonist
| SMILES | pIC50 |
| --- | --- |
| O=c1oc(Cl)c(Cl)c2ccccc12 | ≤ 4.00 |
| CN(C)c1ccc2nc3ccc(=[N+](C)C)cc-3sc2c1 | 4.95 |
| Cc1ccccc1-n1ncc2c(NCC(C)O)ncnc21 (stereo not drawn) | ≤ 4.00 |
| COc1ccccc1N1CCN(CCCCNC(=O)c2ccc(-c3cscn3)cc2)CC1 | ≤ 4.00 |
| OC(c1ccccc1)c1nc(Nc2ccc(N3CCOCC3)cc2)n[nH]1 (stereo not drawn) | ≤ 4.00 |
| CN1CCN(c2ccccc2CNCc2ccccc2)CC1 | ≤ 4.00 |

Sample 3
Target: Calcium/calmodulin-dependent protein kinase type II subunit alpha (CAMK2A, Homo sapiens, UniProt Q9UQM7)
UniProt Q9UQM7, sequence (whole entry, looked up): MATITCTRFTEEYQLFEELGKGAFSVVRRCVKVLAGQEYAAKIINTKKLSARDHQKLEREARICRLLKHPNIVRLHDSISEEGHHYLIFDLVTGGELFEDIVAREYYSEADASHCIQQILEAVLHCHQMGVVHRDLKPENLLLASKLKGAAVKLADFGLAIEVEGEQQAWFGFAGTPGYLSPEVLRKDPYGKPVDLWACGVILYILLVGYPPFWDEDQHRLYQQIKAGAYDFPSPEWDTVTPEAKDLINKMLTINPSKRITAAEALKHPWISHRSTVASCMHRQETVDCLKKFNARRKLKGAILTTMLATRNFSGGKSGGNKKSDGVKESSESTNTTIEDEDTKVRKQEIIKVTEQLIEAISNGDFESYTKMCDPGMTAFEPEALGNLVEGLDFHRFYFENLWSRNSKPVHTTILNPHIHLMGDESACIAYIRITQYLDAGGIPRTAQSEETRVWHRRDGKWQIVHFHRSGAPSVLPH
Read-out: enzyme activity
Mode: inhibitor
Concentration: 10 µM
| Compound | inhibition |
| --- | --- |
| CC(=O)O[C@H]1C[C@@]2(O)[C@@H](OC(=O)c3ccccc3)[C@@H]3[C@]4(OC(C)=O)CO[C@@H]4C[C@H](O)[C@@]3(C)[C@@H](O)[C@H](OC(C)=O)C(=C1C)C2(C)C | -1% |
| C=C1CCC[C@]2(C)C[C@@H]3OC(=O)C(C)=C3C[C@@H]12 | -3% |
| Nc1ccc(S(=O)(=O)Nc2ccccn2)cc1 | -2% |
| COc1cc2c(cc1OC)[C@H]1[C@@H](C)c3ccc(OC)c(OC)c3CN1CC2 | -10% |
| O=C(CCc1ccccc1)C[C@@H](O)/C=C/c1ccccc1 | 12% |
| C/C=C1\[C@H]2C=C(C)C[C@]1(N)c1ccc(=O)[nH]c1C2 | 11% |
| CCOC(=O)/C=C/c1ccc(OC)cc1 | -2% |
| O=Cc1ccc(O)cc1 | -14% |

Sample 4
Target: DNA polymerase theta, ATPase domain (POLQ, Homo sapiens, UniProt O75417)
UniProt O75417, sequence (whole entry, unmodified, looked up): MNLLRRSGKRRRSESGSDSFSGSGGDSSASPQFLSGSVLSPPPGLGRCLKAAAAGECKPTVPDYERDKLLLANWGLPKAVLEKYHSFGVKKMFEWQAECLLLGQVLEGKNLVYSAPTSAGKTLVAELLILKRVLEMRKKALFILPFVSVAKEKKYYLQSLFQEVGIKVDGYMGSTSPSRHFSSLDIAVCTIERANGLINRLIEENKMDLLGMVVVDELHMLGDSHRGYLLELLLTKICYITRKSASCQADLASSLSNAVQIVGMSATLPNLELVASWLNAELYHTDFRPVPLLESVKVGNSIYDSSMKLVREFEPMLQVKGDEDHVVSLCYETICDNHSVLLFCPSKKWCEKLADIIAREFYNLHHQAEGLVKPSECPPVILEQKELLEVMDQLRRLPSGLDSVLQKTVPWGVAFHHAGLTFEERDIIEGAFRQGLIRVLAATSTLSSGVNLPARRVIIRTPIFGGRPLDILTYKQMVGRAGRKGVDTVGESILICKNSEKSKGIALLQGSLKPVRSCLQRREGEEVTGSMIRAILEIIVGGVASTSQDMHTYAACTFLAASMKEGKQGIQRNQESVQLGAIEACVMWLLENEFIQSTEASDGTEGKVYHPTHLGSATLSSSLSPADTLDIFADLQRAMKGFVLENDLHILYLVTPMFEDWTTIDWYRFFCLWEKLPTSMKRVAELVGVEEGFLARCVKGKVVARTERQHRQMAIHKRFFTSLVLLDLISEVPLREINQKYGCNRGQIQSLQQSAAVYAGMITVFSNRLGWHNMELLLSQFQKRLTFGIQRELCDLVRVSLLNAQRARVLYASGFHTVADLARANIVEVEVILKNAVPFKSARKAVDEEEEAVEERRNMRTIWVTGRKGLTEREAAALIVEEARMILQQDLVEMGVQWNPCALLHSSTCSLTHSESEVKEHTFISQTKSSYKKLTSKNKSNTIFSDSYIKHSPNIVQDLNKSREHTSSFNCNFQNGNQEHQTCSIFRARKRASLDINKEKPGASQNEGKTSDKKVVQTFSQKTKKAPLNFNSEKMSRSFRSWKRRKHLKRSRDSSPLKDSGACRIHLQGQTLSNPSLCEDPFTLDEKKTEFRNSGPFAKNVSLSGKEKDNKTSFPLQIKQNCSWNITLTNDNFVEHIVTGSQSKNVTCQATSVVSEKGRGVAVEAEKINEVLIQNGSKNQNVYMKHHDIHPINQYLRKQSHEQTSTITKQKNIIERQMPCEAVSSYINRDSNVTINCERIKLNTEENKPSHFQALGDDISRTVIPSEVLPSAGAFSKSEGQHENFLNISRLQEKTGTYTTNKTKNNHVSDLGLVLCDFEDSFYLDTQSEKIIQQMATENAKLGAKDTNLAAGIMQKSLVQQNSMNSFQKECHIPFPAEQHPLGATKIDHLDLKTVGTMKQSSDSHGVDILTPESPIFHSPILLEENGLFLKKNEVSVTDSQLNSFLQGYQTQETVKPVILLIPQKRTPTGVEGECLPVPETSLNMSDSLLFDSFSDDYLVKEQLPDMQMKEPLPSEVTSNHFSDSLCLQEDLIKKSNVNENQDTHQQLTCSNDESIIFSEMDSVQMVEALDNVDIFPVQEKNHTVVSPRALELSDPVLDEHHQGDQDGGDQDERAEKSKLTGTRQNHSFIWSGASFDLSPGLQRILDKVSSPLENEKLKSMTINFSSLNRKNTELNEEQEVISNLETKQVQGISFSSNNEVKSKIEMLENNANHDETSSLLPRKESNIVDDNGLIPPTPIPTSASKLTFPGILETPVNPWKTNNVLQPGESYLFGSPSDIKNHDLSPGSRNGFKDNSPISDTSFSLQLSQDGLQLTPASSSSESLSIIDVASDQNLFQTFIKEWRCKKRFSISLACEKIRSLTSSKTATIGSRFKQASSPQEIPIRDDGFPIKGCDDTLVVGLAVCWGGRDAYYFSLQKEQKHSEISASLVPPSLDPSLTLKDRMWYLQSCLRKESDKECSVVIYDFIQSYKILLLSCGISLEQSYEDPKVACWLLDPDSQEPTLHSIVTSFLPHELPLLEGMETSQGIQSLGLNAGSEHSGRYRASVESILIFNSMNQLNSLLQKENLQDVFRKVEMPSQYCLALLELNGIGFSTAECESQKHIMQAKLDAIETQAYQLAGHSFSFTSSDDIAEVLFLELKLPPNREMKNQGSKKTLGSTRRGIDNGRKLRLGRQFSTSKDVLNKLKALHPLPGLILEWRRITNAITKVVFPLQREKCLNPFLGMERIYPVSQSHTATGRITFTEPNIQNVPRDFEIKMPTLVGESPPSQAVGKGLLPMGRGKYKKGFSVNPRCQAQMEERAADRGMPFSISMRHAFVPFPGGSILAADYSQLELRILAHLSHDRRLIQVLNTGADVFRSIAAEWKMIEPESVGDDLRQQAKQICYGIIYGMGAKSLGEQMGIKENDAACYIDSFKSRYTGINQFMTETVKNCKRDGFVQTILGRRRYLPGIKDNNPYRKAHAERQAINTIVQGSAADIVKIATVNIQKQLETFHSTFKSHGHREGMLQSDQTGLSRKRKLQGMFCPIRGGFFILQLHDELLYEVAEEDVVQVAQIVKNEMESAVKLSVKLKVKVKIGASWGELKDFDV
Read-out: enzyme activity
Mode: inhibitor
Concentration: 77 µM
Baseline: untreated
| SMILES | remaining activity |
| --- | --- |
| COCCCN1CCC(NC(=O)c2cc(Cl)c(N)c3c2OCC3)CC1 | 101% and 91.1% |
| Nc1ncn([C@H]2C[C@H](O)[C@@H](CO)O2)c(=O)n1 | 101% |
| Nc1nc(SCc2ccc([N+](=O)[O-])cc2)c2ncn([C@@H]3O[C@H](CO)[C@@H](O)[C@H]3O)c2n1 | 97.3% |
| O=C(O)C(Cc1ccccc1[N+](=O)[O-])=NNc1nc(-c2ccc(Cl)c(Cl)c2)cs1 (mixture of isomers) | 81.9% |
| Cc1[nH]c(=O)c(C#N)cc1-c1ccc2nccn2c1 | 98.9% |
| O=C(Nc1ccccc1Br)N[C@@H]1CCN(c2ccc(C(F)(F)F)cn2)C1 | 98.4% |
| COc1ccc2c(c1)c(CC(=O)O)c(C)n2Cc1ccc(Cl)cc1 | 66.7% |

Some of these lines once more (sample 1):
| target | remaining binding |
| --- | --- |
| PRKCH (Homo sapiens, UniProt P24723) | 100% |
| Non-receptor tyrosine-protein kinase TYK2, JH2 (TYK2, Homo sapiens, UniProt P29597) | 100% |
| Tyrosine-protein kinase ABL1, phosphorylated (ABL1, Homo sapiens, UniProt P00519, F317L) | 72.9% |
